Published values collected from several papers.
Each numbered part is a random draw from the data of one study; scales do not carry over between parts.

Sample 1
Target: Eukaryotic initiation factor 4A-I (EIF4A1, Homo sapiens, UniProt P60842, residues 1-406, full length assumed)
UniProt P60842, sequence (whole entry, looked up): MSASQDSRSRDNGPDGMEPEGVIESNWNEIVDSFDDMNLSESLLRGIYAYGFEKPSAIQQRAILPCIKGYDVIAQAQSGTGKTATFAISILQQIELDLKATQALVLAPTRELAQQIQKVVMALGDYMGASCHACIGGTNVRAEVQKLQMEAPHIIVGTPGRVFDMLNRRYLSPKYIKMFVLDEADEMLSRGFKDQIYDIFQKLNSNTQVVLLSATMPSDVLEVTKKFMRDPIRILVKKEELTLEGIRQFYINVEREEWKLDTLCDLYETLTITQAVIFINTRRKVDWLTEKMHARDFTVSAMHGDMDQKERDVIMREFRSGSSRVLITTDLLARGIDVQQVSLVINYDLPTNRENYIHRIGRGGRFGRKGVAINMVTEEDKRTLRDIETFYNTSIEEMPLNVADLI
Technique: RNA Bind-n-Seq
Form: RNA
Matrix: in vitro
Concentration: 15 pmol
Setting: 4-mer, random 30-nt RNA, single round
With: 3 µM DMDA-PatA, 2 mM AMP-PNP
Baseline: input library
Reading: higher = stronger binding
Sequence	4-mer enrichment
ACUC	0.578 fold
AGCG	1.1 fold
GUUA	1.36 fold
UGUC	0.919 fold
AUGA	1.11 fold
CCCA	0.526 fold
AGAG	1.21 fold
AUCC	0.521 fold
UAAU	1.22 fold
GGGU	1.52 fold
UUUC	0.852 fold
GGGG	1.33 fold

Sample 2
Target: Histone acetyltransferase KAT6A, both winged helices, GST fusion (KAT6A, Homo sapiens, UniProt Q92794, residues 1-181)
Technique: protein binding microarray
Form: double-stranded DNA, one strand shown
Matrix: in vitro
Concentration: not given
Setting: 8-mer, flanks averaged, mean of 2 arrays, mostly near background
Baseline: not given
Reading: higher = stronger binding
Construct (chain): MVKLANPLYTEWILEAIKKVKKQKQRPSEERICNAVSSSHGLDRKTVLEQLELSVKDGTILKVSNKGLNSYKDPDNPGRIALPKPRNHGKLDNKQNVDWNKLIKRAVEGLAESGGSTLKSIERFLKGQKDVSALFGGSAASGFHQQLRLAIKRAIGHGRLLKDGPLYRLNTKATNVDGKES
Sequence	E-score
CGCGAGCG	0.363
CGCGCGCG	0.435
GAGAGACC	-0.104
ACATAGTG	-0.0816
GCGCGTAA	0.348
ATGTGGGG	-0.194
CAAACAGC	-0.0868
GAGTTTAA	-0.0668
AGTACGAA	-0.0502
GAACCAAA	-0.162
CAAGTAGG	-0.222
ATCCCAAT	-0.0879
CTGTAGCA	-0.152
AGTATCGA	0.107
TGAGATAA	0.0381
TCTCCACA	-0.195
ACAGGTTG	-0.165
AGTGATAG	-0.166
AGTCACAC	-0.13
CAGCCAGA	-0.248
CACCTGCG	0.0549
AATGGTCC	0.00843
CGAGATAG	-0.105
TCCGTCCA	0.0778
AAGGACCT	0.0182

Sample 3
Target: Sal-like protein 4, full length isoform A (SALL4, Homo sapiens, UniProt Q9UJQ4, residues 1-1053)
UniProt Q9UJQ4, sequence (whole entry, looked up): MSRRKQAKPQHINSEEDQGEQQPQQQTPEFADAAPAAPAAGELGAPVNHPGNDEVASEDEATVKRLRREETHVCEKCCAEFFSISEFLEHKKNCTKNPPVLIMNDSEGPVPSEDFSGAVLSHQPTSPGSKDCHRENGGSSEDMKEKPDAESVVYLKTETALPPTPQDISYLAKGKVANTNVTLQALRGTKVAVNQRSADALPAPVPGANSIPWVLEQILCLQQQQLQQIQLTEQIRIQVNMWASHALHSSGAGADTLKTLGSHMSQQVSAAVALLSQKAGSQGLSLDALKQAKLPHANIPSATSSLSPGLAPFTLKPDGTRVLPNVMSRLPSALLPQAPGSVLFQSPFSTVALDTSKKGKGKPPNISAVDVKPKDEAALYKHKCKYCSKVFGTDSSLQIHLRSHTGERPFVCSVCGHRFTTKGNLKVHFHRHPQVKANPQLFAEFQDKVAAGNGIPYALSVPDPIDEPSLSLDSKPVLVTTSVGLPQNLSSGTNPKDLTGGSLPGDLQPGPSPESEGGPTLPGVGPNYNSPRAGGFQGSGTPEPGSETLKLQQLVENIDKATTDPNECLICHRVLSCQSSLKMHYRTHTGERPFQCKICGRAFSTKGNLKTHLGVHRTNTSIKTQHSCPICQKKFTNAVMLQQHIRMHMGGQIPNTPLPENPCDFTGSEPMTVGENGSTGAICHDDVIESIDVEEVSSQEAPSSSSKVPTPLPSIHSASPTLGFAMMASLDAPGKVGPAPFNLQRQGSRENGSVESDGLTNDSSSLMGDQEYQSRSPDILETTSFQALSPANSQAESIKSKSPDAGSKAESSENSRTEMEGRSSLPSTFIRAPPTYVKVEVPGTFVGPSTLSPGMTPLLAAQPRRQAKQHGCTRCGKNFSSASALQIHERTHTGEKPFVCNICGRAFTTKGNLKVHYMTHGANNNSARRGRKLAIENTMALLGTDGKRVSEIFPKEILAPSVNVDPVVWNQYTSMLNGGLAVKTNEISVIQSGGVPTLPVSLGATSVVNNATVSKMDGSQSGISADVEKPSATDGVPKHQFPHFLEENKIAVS
Technique: universal PBM
Form: double-stranded DNA, one strand shown
Matrix: in vitro
Concentration: 600 nM
Setting: 8-mer, flanks averaged, mean of replicates
Reading: higher = stronger binding
Sequence	E-score
CGCATGAC	-0.19
GGTACAAC	0.0855
TGTTGGAA	0.203
CATATCGA	0.0708
CTCTTACA	0.156
GAAAACAA	0.224
AGAGTAGC	-0.196
GGTAGCAA	-0.0101
ATTCCCCA	-0.0769
CGAACGAA	-0.0522
CACTAAGC	-0.144
AAACGTTT	0.207
CGTGCTCA	-0.139
ATAAGAGC	0.125
CATACACG	0.141
GATCCCCA	-0.185
ATTTCGAC	-0.0631
AAGGCGTG	-0.244

Sample 4
Target: RING finger protein unkempt homolog, zinc fingers 1-6, GST-SBP tag (UNK, Homo sapiens, UniProt Q9C0B0, residues 30-357)
UniProt Q9C0B0, sequence (30-357, looked up): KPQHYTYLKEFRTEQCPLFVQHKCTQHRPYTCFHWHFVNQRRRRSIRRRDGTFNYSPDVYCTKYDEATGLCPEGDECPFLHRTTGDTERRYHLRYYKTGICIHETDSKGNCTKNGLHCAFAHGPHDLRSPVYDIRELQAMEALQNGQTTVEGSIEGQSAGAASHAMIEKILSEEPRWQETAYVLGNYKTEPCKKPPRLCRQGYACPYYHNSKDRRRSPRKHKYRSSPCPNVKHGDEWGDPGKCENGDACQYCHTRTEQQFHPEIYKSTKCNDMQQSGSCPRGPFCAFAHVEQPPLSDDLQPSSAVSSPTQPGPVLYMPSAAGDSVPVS
Technique: RNA Bind-n-Seq
Form: RNA
Matrix: in vitro
Concentration: not given
Setting: RNA with constant flanks, ends assumed
Baseline: input RNA pool
Reading: higher = stronger binding
All sequences stand within: GGGAGUUCUACAGUCCGACGAUC … CAACAGAGGAUUGAGCAUCA
Sequence	bound/input enrichment
AAUAAGCCCUGCCCAGUAUGUAGACAACCAAUUCAAAUGAUUGUGCUAACUUAUUUCCCCCCGUUGACCUGUCUAUAAGAGAAUUAUAUAUUUCUAACUAUAUAACCCUAGGAAUUUAGA	3.6 ratio
UCCGUUUUGGAAGAGUUGCAGAAAGACCUAGAAGAGGUCAAAGUAUUGCUGGAAAAGUCCACCCGGAAAAGACUACGUGAUACUCUUACAAGUGAAAAGUCCAAGAUUGAGACGGAACUC	0.363 ratio
UUCUAUAACACUGGUUGAGAAAGUUCAGAUGAUCGCUGUAAUCCUAGGAUCCCUGUUCUUAACCGCGAGUGUGACUUGGCUCCUCUGGUCAGCCUUCAGCCCCUAUGCAGUGUGGCAGAG	0.144 ratio
UGCAUUAAUCCACCCUUGUUUGAAAUCCAUCAAGUCUUGUUGAGUCCAACCCAACAUCAUGCCGCACUUAUCGGAAGUAAAGGACUUAUGGCAUUAGAAUUACCUCAGAGGUGGGGGAAG	0.363 ratio
AGGAAUCAAGUGCUACCACUUUCUGAUGUGGAUACAACUUCUGCUACAGAUAUUCAAAGAGCCGCUGUGCUAUGUGUUUCCAGAUCUGCUUAUUGUUUGGGUUCAAGCCACCCCAGAGGA	0.144 ratio
UAUCCUAUUGCGGUGCUCAUAGAUGAACUCCGCAAUGAGGACGUUCAGCUUCGUCUCAACCGUAUCAAGAAGCUCUCCACAAUUGCCUUGGCCCUUGGGGUUGAACGGACCAGAAGUGAG	0.123 ratio
UCUUAUAAUAGUCUAGUGCUAUAGAUGUUCAUGGAUUGUUUGAUGCUCCAUAACUCCUCAUUCCGAUAACUUUUUAGUAACAGCAUCUUCCAGUGGCGACAAAAUAGUUGUCUCAAGUUG	0.345 ratio
AGGCGUCACCUUGAUGGCCUGCAACCCCUCCCUGCCUCAUUCUUAGUUCAAGAUCGUCUUCCGUCUCGCUGCGUCCCUUUCCCUUGCACCUGUUAACAUCUUUAAGGCAGGAGCUGAUGA	0.577 ratio
GAACUGUUGAGUUCUUAUGAUGUUGAUAUUAAUCAGAUCAUAAAUACCAUAUCUGAAUGGGCCGUUAUGAUUAAGACCAGAGGUGUUAGGCGACCGGAGUUUCAGCCUCUACUAACUGAG	0.144 ratio
GGGCCCUGGAAGCUGACGGCGUCCAAGACCCACAUCAUGAAGUCGGCGGAUGUGGAGAAAUCCGCCGAUGAAUUACAUAUGCCAUCUCUCCCUGAAAUGAUGUUUGGAGACAACGUUUUA	0.133 ratio
ACUCCCUGGUUCUGGCCCAAAGACAAGACCAAAGUCUGGUCUAAGCCCAAAGAAGAGCCCAACCGCCGGUCCUGGUUUAGGUCUAAGAAAGAAGUCCGUGUUGAAUCCACUUCUGGGUCU	0.232 ratio

Sample 5
Target: Ras GTPase-activating protein-binding protein 1, full length (G3BP1, Homo sapiens, UniProt Q13283)
UniProt Q13283, sequence (whole entry, looked up): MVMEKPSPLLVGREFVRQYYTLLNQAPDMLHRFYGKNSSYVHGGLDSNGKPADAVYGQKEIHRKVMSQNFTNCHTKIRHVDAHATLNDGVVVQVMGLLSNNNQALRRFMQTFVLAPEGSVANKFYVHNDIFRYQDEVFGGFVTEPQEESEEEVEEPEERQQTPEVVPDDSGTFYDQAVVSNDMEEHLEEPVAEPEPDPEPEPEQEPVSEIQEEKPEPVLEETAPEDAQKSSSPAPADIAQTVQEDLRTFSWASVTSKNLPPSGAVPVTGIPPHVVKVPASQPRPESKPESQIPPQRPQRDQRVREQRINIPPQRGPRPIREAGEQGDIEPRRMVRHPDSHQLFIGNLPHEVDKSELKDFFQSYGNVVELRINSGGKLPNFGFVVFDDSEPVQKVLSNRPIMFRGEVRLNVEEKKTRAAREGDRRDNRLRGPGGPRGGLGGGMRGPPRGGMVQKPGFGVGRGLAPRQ
Technique: RNA Bind-n-Seq
Form: RNA
Matrix: in vitro
Concentration: 200 nM
Setting: whole 134-nt RNA, ends assumed
With: 150 mM KCl
Baseline: input library
Reading: higher = stronger binding
All sequences stand within: GGGAGUUCUACAGUCCGACGAUC … UGGAAUUCUCGGGUGUCAAGG
Sequence	log2 enrichment
AGUCCUGUGCUACACAUCGUAUGUACCGAAUCGGGGAAAAGGGAAAAGGGAAAAGGGAAAGUAUUAUGUUACGCCGUUCGGAUCUGCACU	0.182
UUGCAGCAACUGCUACCAGCCUCCCAGUCCACACAGCUGCCAUGCUCAAGUUCCCCUCAGGAGACCACCCAGUCUCGCCCUAUGCCGCCG	0.346
CUGUGCUACACAUCGUAUGUACCGAAUCGGGAAAAAAAGGGGAAAAAAAGGAAAAAAAGGGGAAAGUAUUAUGUUACGCCGUUCGGAUCU	-0.731
CCUGUGCUACACAUCGUAUGUACCGAAUCGGGGCCCCCCGGGCCCCCCGGGCCCCCCGGGAAAGUAUUAUGUUACGCCGUUCGGAUCUGC	-0.667
CAAGUCCUGUGCUACACAUCGUAUGUACCGAAUCGGUUUUUUUGGAAAAAGGAGGAAAGUAUUAUGUUACGCCGUUCGGAUCUGCACUUC	-0.871
CACAGACAACACGCACCCACACAGACACAGAGGGAAGGGGUUGGGAUGGGGACAGGGUGCACAAAAGGGCGGGGUAGGACCCCAGCCCCU	1.87
CCUCAAGUCCUGUGCUACACAUCGUAUGUACCGAAUCGGAAGGAAGGGAAGGAAAGUAUUAUGUUACGCCGUUCGGAUCUGCACUUCCAG	-0.0855
GUCCUGUGCUACACAUCGUAUGUACCGAAUCGGAAAAAGGAAAAAAAGGAAAAAAAGGAAAGUAUUAUGUUACGCCGUUCGGAUCUGCAC	-0.933
CAAGUCCUGUGCUACACAUCGUAUGUACCGAAUCGGCCCCGGGCCCCGGCCCCGGGAAAGUAUUAUGUUACGCCGUUCGGAUCUGCACUU	-0.673
CCUCAAGUCCUGUGCUACACAUCGUAUGUACCGAAUCGGAGGAGGAAAAAGGAAAGUAUUAUGUUACGCCGUUCGGAUCUGCACUUCCAG	0.00554
CACAGACAACACGCACCCACACAGACACAGAGGGAAGGGGUUGGGGUGGGGACAGGGUGCACAGCAGGGCGGGGUAGGACCCCAGCCCCU	1.66
UCCUCAAGUCCUGUGCUACACAUCGUAUGUACCGAAUCGGCGGGCGGCGGGGAAAGUAUUAUGUUACGCCGUUCGGAUCUGCACUUCCAG	0.178
CACAGACAACACGCACCCACACAGACACAGAGGGAAGGGGUUCGGAUGGGGACAGGGUGCACAGCAGGGCGGGGUAGGACCCCAGCCCCU	1.74
UAACUUUAGAGGAGGAUCUGAUGGAUAUGGCAGUGGACGUGGAUUUGGGGAUGGCUAUAAUGGGUAUGGAGGAGGACCUGGUGGUGGCAA	0.205

Sample 6
Target: PABPC1L2, full length, GST fusion (mouse, UniProt A0ABA7IW68)
Technique: RNAcompete
Form: RNA
Matrix: in vitro
Concentration: 20 nM
Setting: 7-mer, probes averaged, single round
Baseline: mean of 7-mers
Reading: higher = stronger binding
Construct (chain): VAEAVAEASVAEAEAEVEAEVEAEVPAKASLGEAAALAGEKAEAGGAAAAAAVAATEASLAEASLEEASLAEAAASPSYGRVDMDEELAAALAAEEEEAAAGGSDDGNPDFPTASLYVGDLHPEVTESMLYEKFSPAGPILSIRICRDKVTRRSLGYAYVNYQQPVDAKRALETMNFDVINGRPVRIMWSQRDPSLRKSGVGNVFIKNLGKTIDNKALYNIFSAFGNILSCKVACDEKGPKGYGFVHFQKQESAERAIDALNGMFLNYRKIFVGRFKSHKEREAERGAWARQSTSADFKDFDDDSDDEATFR
Sequence	7-mer Z-score
CAGCUAA	0.00979
CUACCGU	-0.248
GCUCGAG	-0.336
CAAGUAC	-0.137
UAUGGUC	-0.0899
ACUGCGC	-0.224
CUUUGAU	-0.113
CCGACGG	-0.385
GAAGCGG	0.222
CACCUCC	-0.354
CGAAACG	-0.159
UAACGAG	-0.0645
AGUCGCG	-0.103
UCUUAGU	-0.431
UUGAGAC	-0.119
ACAUUAA	0.155
UGUCAUC	-0.267
ACGACUC	-0.164
GGAACGG	0.332
CUUUAUC	-0.26

Repeated from above (sample 5):
Sequence	log2 enrichment
CCUCAAGUCCUGUGCUACACAUCGUAUGUACCGAAUCGGAAGGAAGGGAAGGAAAGUAUUAUGUUACGCCGUUCGGAUCUGCACUUCCAG	-0.0855
CACAGACAACACGCACCCACACAGACACAGAGGGAAGGGGUUGGGGUGGGGACAGGGUGCACAGCAGGGCGGGGUAGGACCCCAGCCCCU	1.66
CAAGUCCUGUGCUACACAUCGUAUGUACCGAAUCGGUUUUUUUGGAAAAAGGAGGAAAGUAUUAUGUUACGCCGUUCGGAUCUGCACUUC	-0.871
GUCCUGUGCUACACAUCGUAUGUACCGAAUCGGAAAAAGGAAAAAAAGGAAAAAAAGGAAAGUAUUAUGUUACGCCGUUCGGAUCUGCAC	-0.933
CACAGACAACACGCACCCACACAGACACAGAGGGAAGGGGUUGGGAUGGGGACAGGGUGCACAAAAGGGCGGGGUAGGACCCCAGCCCCU	1.87
UCCUCAAGUCCUGUGCUACACAUCGUAUGUACCGAAUCGGCGGGCGGCGGGGAAAGUAUUAUGUUACGCCGUUCGGAUCUGCACUUCCAG	0.178
CCUCAAGUCCUGUGCUACACAUCGUAUGUACCGAAUCGGAGGAGGAAAAAGGAAAGUAUUAUGUUACGCCGUUCGGAUCUGCACUUCCAG	0.00554
UUGCAGCAACUGCUACCAGCCUCCCAGUCCACACAGCUGCCAUGCUCAAGUUCCCCUCAGGAGACCACCCAGUCUCGCCCUAUGCCGCCG	0.346
UAACUUUAGAGGAGGAUCUGAUGGAUAUGGCAGUGGACGUGGAUUUGGGGAUGGCUAUAAUGGGUAUGGAGGAGGACCUGGUGGUGGCAA	0.205
CAAGUCCUGUGCUACACAUCGUAUGUACCGAAUCGGCCCCGGGCCCCGGCCCCGGGAAAGUAUUAUGUUACGCCGUUCGGAUCUGCACUU	-0.673
CCUGUGCUACACAUCGUAUGUACCGAAUCGGGGCCCCCCGGGCCCCCCGGGCCCCCCGGGAAAGUAUUAUGUUACGCCGUUCGGAUCUGC	-0.667
CACAGACAACACGCACCCACACAGACACAGAGGGAAGGGGUUCGGAUGGGGACAGGGUGCACAGCAGGGCGGGGUAGGACCCCAGCCCCU	1.74
AGUCCUGUGCUACACAUCGUAUGUACCGAAUCGGGGAAAAGGGAAAAGGGAAAAGGGAAAGUAUUAUGUUACGCCGUUCGGAUCUGCACU	0.182
CUGUGCUACACAUCGUAUGUACCGAAUCGGGAAAAAAAGGGGAAAAAAAGGAAAAAAAGGGGAAAGUAUUAUGUUACGCCGUUCGGAUCU	-0.731
